# Experimental data of several laboratories.
# Each line is one published result; not all experiments were run side by side. “And” joins repeats or separate records; there may be more than shown. ± marks the error that the study gave.
SMILES,organism,assay,system,setting,how to read,endpoint,value
Nc1nc(-c2ccccc2)nc2[nH]nc(Nc3cccc(F)c3F)c12,rhinovirus B42,viral cytopathic effect,HeLa,,,IC50,20 nM
CC(C)(C)NCC(SS(=O)(=O)O)c1ccccc1 (stereo not shown),Schistosoma mansoni,perfusion day 52,infected Swiss Webster mice,"400 mg/kg single dose, 1248 h, dosed day 7 post-infection",baseline: vehicle control,spleen weight decrease,14%
Nc1nc(-c2ccccc2)nc2[nH]nc(Nc3cc(F)ccc3F)c12,rhinovirus B42,viral cytopathic effect,HeLa,,,IC50,40 nM
FC(F)(F)c1cccc(CNc2nc(NC3CCN(Cc4ccccc4)CC3)c3nc[nH]c3n2)c1,Cryptococcus neoformans,"RNA-seq, measured: INM1 (CNAG_01823) mRNA",,"48 µg/mL, 3 h",baseline: untreated wild type,log2 fold change,-0.323
O=c1[nH]cc(C(c2ccccc2Br)c2c[nH]c(=O)[nH]c2=O)c(=O)[nH]1,Human immunodeficiency virus 1,"viral replication, inhibitor, ELISA",,1 µg/mL,,inhibition,65%
"COc1cc(C)c(-c2ccc(O)c3c2C[C@@H](C)N[C@@H]3C)c2cccc(O)c12 (single isomer, unassigned)",Plasmodium falciparum,"asexual parasite proliferation, SYBR Green I fluorescence",Dd2,,,IC50,248 ± 46 nM
Cc1ncsc1-c1ccc(CNC(=O)[C@@H]2C[C@H](O)CN2C(=O)[C@@H](NC(=O)CN2CCN(C3CN(CCNC(=O)C[C@@H]4N=C(c5ccc(Cl)cc5)c5c(sc(C)c5C)-n5c(C)nnc54)C3)CC2)C(C)(C)C)cc1,Spodoptera frugiperda,"degrader, targeted LC-MS, measured: BRD3",Sf9,1 µM,,protein level,149% and 152% and 165% and 128%
O=c1[nH]cc(C(c2ccccc2F)c2c[nH]c(=O)[nH]c2=O)c(=O)[nH]1,Human immunodeficiency virus 1,"viral replication, inhibitor, ELISA",,1 µg/mL,,inhibition,3%
CC1=CC(OC=C2C(=O)OC3c4ccccc4CC23)OC1=O (racemic),Striga hermonthica,,,,,maximum germination,98%
COc1cccc2c(-c3ccc(O)c4c3C[C@@H](C)N[C@@H]4C)c(C)cc(O)c12,Plasmodium falciparum,"asexual parasite proliferation, SYBR Green I fluorescence",7G8,,,IC50,10.2 ± 4.6 nM
Cc1c(CN(C)C(=O)/C=C/c2cnc3c(c2)CC(N)C(=O)N3)oc2ccccc12 (stereo not shown),Acinetobacter baumannii,broth microdilution,AR-0083,,,MIC,16 µg/mL
O=C(O)c1cc(O)cc(O)c1,Streptomyces coelicolor,RT-PCR,,"2 mM, 1 h",,pcaH mRNA level,increased
CN(C)c1ccc(Nc2n[nH]c3nc(-c4ccccc4)nc(N)c23)cc1,rhinovirus B42,viral cytopathic effect,HeLa,,,IC50,30 nM
COc1cc(C)c(-c2ccc3c(c2O)[C@@H](C)N[C@H](C)C3)c2ccc(-c3c(C)c(-c4ccc5c(c4O)[C@@H](C)N[C@H](C)C5)c4cccc(OC)c4c3O)c(O)c12,Plasmodium falciparum,"asexual parasite proliferation, SYBR Green I fluorescence","clinical isolate SB_05, Mozambique",,,IC50,95 ± 17 nM
COC1C=COC2(C)Oc3c(C)c(O)c4c(c3C2=O)C2=NC3(CCN(CC(C)C)CC3)NC2=C(NC(=O)C(C)=CC=CC(C)C(O)C(C)C(O)C(C)C(OC(=O)Nc2cccnn2)C1C)C4=O (stereo not shown),Mycobacteroides abscessus,bacterial growth,subsp. massiliense 097 clinical isolate,"rough, slow grower",,IC90,335 nM
COc1ccc(-c2ccc(OC(C)C)c3cnccc23)c2ccccc12,Plasmodium falciparum,"parasite growth, SYBR Green",NF54,blood stage,,IC50,25400 nM
C=C(NC(=O)c1csc(-c2nc3c(cc2O)-c2nc(cs2)C(=O)NC(C(C)O)C(=O)NC(=C(C)OC)c2nc(cs2)C(=O)NC2c4nc(cs4)C(=O)NC(COC(=O)c4c5c6c(cccc6n4O)COC(=O)C(OC4CC(C)(O)C(N(C)C)C(C)O4)C2OC5)c2nc-3cs2)n1)C(N)=O (stereo not shown),Streptococcus pyogenes,broth microdilution,,,,MBC,0.125 µg/mL
CNCc1ccc2c(c1)N(C(=O)OCc1c(F)c(F)c(F)c(F)c1F)[C@H](CNC(=N)N)[C@H]2NC(=O)C(=O)Nc1ccc(Cl)c(F)c1,HIV-1,"pseudovirus infection, Env pseudovirus neutralisation","TZM-bl, clade B T/F isolate d15_410_787",,,IC80,919 nM
CC[C@H](C)[C@H](NC(=O)[C@H](Cc1ccc(O)cc1)NC(=O)[C@H](CCC(=O)O)NC(=O)CNC(=O)[C@H](CCC(=O)O)NC(=O)[C@H](CCCCN)NC(=O)[C@H](CCCCN)NC(=O)[C@H](CC(=O)O)NC(=O)[C@H](Cc1c[nH]cn1)NC(=O)[C@H](Cc1c[nH]cn1)NC(=O)[C@H](Cc1c[nH]cn1)NC(=O)[C@H](Cc1c[nH]cn1)NC(=O)[C@H](Cc1c[nH]cn1)NC(=O)[C@H](Cc1c[nH]cn1)NC(=O)[C@H](Cc1c[nH]cn1)NC(=O)[C@H](Cc1c[nH]cn1)NC(=O)[C@H](Cc1c[nH]cn1)NC(=O)[C@@H](N)Cc1c[nH]cn1)C(=O)N[C@@H](CCCCN)C(=O)N[C@@H](CC(C)C)C(=O)N[C@@H](CCCCN)C(=O)N[C@H](C(=O)N[C@H](C(=O)NCC(=O)N[C@@H](CCC(N)=O)C(=O)N[C@@H](CC(=O)O)C(=O)N[C@@H](CO)C(=O)N[C@@H](CO)C(=O)N[C@@H](CCC(=O)O)C(=O)N[C@H](C(=O)N[C@@H](Cc1c[nH]cn1)C(=O)N[C@@H](Cc1ccccc1)C(=O)N[C@@H](CCCCN)C(=O)N[C@H](C(=O)N[C@@H](CCCCN)C(=O)N[C@@H](CCSC)C(=O)N[C@H](C(=O)N[C@H](C(=O)N[C@@H](Cc1c[nH]cn1)C(=O)N[C@@H](CC(C)C)C(=O)N[C@@H](CCCCN)C(=O)N[C@@H](CCCCN)C(=O)N[C@@H](CC(C)C)C(=O)N[C@@H](CCCCN)C(=O)N[C@@H](CCC(=O)O)C(=O)N[C@@H](CO)C(=O)N[C@@H](Cc1ccc(O)cc1)C(=O)N[C@@H](CS)C(=O)N[C@@H](CCC(N)=O)C(=O)N[C@@H](CCCNC(=N)N)C(=O)N[C@@H](CCC(N)=O)C(=O)O)[C@@H](C)O)[C@@H](C)O)C(C)C)[C@@H](C)CC)[C@@H](C)CC)C(C)C,Drosophila melanogaster,immunoblot,head,"60 µM, normalised to β-actin, unit not given",baseline: untreated,TH level mean difference,-0.473
Nc1nc(-c2ccccc2)nc2[nH]nc(Nc3cccc(F)c3)c12,coxsackievirus B3,viral cytopathic effect,HeLa,,,IC50,200 nM
Cc1cccc2c1N(C(=O)n1ccnn1)CC2,Striga hermonthica,,seeds,"10 µM, added: 10 nM (±)-GR24",,germination rate,42.9% and 71% and 67.6% and 76.9% and 84.8% and 64.9% and 46.2%
COc1ccc(CCO)cc1O,Zika virus,"viral replication, CCK-8",Vero C1008,"10 µM, 96 h",,inhibition,28.7 ± 1.28%
CC[C@H](C)[C@@H]1NC(=O)[C@@H]([C@@H](C)O)NC(=O)CNC(=O)[C@H](CC(=O)O)NC(=O)CNC(=O)[C@H](CC(=O)O)NC(=O)CNC(=O)[C@H]2CCCCN2C(=O)[C@@H](NC(=O)[C@H](CC(=O)O)NC(=O)/C=C/CCCCCCCCCC(C)C)CNC(=O)[C@@H]2CCCN2C1=O,Staphylococcus simulans,broth microdilution,"22, Mueller-Hinton broth, Mg2+ 10 mg/L","16 h, 30 °C, added: Ca2+ 10 mM",,MIC,2 µg/mL
Nc1nc(-c2ccccc2)nc2[nH]nc(Nc3c(F)cccc3F)c12,coxsackievirus B3,viral cytopathic effect,HeLa,,,IC50,6650 nM
C=C[C@]1(C)C[C@@H](OC(=O)CSc2ccc(NC(=O)c3ccco3)cc2)[C@]2(C)[C@H](C)CC[C@]3(CCC(=O)[C@H]32)[C@@H](C)[C@@H]1O,Mycoplasma gallisepticum,,"infected chickens, lung","intramuscular, 20 mg/kg daily x3, 72 h",,lung mycoplasma count,4.31 log10 CFU/mL and 4.27 log10 CFU/mL and 4.16 log10 CFU/mL and 3.98 log10 CFU/mL and 5.1 log10 CFU/mL and 4.57 log10 CFU/mL and 4.99 log10 CFU/mL and 5.74 log10 CFU/mL
CN(Cc1ccc(C2(C(F)(F)F)CCC2)cc1)Cc1cccc2ccccc12,Trichophyton mentagrophytes,"microbial growth, disc diffusion",ATCC18748,"0.0005 µg/mL, 72 h",,inhibition zone,0 mm
Cc1cccc(-c2nc(N)c3c(Nc4ccc(F)cc4)n[nH]c3n2)c1,coxsackievirus B3,viral cytopathic effect,HeLa,,,IC50,600 nM
O=c1[nH]cc(C(c2ccc(Cl)cc2)c2c[nH]c(=O)[nH]c2=O)c(=O)[nH]1,Human immunodeficiency virus 1,"viral replication, inhibitor, ELISA",,1 µg/mL,,inhibition,69%
CCCCCCCCCC(=O)N[C@@H](Cc1c[nH]c2ccccc12)C(=O)N[C@H](CC(N)=O)C(=O)N[C@@H](CC(=O)O)C(=O)N[C@@H]1C(=O)NCC(=O)N[C@@H](CCCNC(=O)OC2/C=C/CCCCC2)C(=O)N[C@@H](CC(=O)O)C(=O)N[C@H](C)C(=O)N[C@@H](CC(=O)O)C(=O)NCC(=O)N[C@H](CO)C(=O)N[C@@H]([C@H](C)CC(=O)O)C(=O)N[C@@H](CC(=O)c2ccccc2N)C(=O)O[C@@H]1C (stereo partly shown),Staphylococcus aureus,"planktonic bacterial growth, isothermal microcalorimetry",MSSA,"1.5 µg/mL, 24 h, 37 °C, added: TAG hydrogel",,peak heat flow time,0 h
O=c1[nH]cc(C(c2cc(F)c(F)c(F)c2)c2c[nH]c(=O)[nH]c2=O)c(=O)[nH]1,Human immunodeficiency virus 1,"viral replication, inhibitor, ELISA",,1 µg/mL,,inhibition,28%
Nc1nc(-c2ccccc2)nc2[nH]nc(Nc3cccnc3)c12,coxsackievirus B3,viral cytopathic effect,HeLa,,,IC50,2600 nM
O=c1[nH]cc(C(c2ccc(C(F)(F)F)cc2)c2c[nH]c(=O)[nH]c2=O)c(=O)[nH]1,Human immunodeficiency virus 1,"viral replication, inhibitor, ELISA",,1 µg/mL,,inhibition,11%
CC(C)c1ccc(Nc2n[nH]c3nc(-c4ccccc4)nc(N)c23)cc1,coxsackievirus B3,viral cytopathic effect,HeLa,,,IC50,2560 nM
CC1=N[C@H](C)Cc2c(-c3ccc(C)cc3)ccc(O)c21,Plasmodium falciparum,"asexual parasite proliferation, SYBR Green I fluorescence",HB3,,,IC50,1030 ± 110 nM

# Some of these lines once more:
SMILES,organism,assay,system,setting,how to read,endpoint,value
Nc1nc(-c2ccccc2)nc2[nH]nc(Nc3cccc(F)c3)c12,coxsackievirus B3,viral cytopathic effect,HeLa,,,IC50,200 nM
CN(Cc1ccc(C2(C(F)(F)F)CCC2)cc1)Cc1cccc2ccccc12,Trichophyton mentagrophytes,"microbial growth, disc diffusion",ATCC18748,"0.0005 µg/mL, 72 h",,inhibition zone,0 mm
CN(C)c1ccc(Nc2n[nH]c3nc(-c4ccccc4)nc(N)c23)cc1,rhinovirus B42,viral cytopathic effect,HeLa,,,IC50,30 nM
Nc1nc(-c2ccccc2)nc2[nH]nc(Nc3cccc(F)c3F)c12,rhinovirus B42,viral cytopathic effect,HeLa,,,IC50,20 nM
COc1ccc(CCO)cc1O,Zika virus,"viral replication, CCK-8",Vero C1008,"10 µM, 96 h",,inhibition,28.7 ± 1.28%
